Measured values gathered from unrelated publications.
Protocols differ between the studies behind these lines. Numbers after ± are the reported error. Non-standard residues stand in square brackets, D forms with d. Square brackets hold non-standard residues; d marks the D form. Bridges are numbered along the chain shown (N, C = ends). Primed or numbered codes have the meaning given here. Where no end group is shown, it is not given here. Ends that are not written are not given here. No end group written: not given here. [ ]: non-standard residue; d: D form. The star is where a group is joined. * marks the point of attachment.
Rbpj: Rbpj 53-474 (Mus musculus, UniProt P31266)
Sequence of UniProt P31266 (whole entry, looked up): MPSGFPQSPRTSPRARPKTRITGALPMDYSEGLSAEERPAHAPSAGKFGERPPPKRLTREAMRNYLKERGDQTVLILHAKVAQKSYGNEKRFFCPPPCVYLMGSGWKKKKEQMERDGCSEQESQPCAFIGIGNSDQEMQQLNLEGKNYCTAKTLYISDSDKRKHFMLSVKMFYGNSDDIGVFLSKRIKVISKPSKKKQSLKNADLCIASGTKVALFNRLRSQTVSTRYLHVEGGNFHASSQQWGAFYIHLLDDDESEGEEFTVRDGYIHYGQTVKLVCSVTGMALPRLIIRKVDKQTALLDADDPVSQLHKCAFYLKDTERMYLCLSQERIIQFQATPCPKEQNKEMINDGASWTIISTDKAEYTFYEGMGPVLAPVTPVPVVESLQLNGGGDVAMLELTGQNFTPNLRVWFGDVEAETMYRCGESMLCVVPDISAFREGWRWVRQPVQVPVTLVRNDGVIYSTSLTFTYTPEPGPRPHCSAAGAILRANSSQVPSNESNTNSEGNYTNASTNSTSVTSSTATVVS
BIRC5: BIRC5 1-142 (Homo sapiens, UniProt O15392)
Sequence of UniProt O15392 (whole entry, looked up): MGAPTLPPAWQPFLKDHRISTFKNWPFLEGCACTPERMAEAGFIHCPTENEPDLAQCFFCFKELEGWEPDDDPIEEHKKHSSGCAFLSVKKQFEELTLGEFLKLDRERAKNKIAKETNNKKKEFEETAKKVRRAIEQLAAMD
B1: PDCD1 residues 25-157 C83S (Mus musculus, UniProt Q02242); chain MALEVPNGPWRSLTFYPAWLTVSEGANATFTCSLSNWSEDLMLNWNRLSPSNQTEKQAAFSNGLSQPVQDARFQIIQLPNRHDFHMNILDTRRNDSGIYLCGAISLHPKAKIEESPGAELVVTERILETSTRYPS
Sequence of UniProt P12004 (whole entry, looked up): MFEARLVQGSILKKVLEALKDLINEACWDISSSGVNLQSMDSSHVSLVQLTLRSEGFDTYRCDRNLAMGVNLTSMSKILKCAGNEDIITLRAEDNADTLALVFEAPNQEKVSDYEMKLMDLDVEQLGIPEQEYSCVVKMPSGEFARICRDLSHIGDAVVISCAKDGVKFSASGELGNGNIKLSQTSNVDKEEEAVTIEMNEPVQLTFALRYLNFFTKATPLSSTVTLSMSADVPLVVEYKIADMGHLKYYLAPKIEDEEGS
Sequence of UniProt O43791 (whole entry, looked up): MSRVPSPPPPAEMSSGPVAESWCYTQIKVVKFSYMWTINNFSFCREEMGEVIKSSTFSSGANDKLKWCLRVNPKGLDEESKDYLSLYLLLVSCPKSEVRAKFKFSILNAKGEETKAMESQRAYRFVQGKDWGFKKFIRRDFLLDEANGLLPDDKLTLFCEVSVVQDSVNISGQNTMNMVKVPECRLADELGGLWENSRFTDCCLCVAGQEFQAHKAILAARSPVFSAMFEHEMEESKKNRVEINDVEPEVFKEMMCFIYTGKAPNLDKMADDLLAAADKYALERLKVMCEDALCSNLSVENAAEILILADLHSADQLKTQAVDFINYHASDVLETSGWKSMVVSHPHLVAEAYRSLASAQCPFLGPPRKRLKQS
Sequence of UniProt Q6ZQF0 (whole entry, looked up): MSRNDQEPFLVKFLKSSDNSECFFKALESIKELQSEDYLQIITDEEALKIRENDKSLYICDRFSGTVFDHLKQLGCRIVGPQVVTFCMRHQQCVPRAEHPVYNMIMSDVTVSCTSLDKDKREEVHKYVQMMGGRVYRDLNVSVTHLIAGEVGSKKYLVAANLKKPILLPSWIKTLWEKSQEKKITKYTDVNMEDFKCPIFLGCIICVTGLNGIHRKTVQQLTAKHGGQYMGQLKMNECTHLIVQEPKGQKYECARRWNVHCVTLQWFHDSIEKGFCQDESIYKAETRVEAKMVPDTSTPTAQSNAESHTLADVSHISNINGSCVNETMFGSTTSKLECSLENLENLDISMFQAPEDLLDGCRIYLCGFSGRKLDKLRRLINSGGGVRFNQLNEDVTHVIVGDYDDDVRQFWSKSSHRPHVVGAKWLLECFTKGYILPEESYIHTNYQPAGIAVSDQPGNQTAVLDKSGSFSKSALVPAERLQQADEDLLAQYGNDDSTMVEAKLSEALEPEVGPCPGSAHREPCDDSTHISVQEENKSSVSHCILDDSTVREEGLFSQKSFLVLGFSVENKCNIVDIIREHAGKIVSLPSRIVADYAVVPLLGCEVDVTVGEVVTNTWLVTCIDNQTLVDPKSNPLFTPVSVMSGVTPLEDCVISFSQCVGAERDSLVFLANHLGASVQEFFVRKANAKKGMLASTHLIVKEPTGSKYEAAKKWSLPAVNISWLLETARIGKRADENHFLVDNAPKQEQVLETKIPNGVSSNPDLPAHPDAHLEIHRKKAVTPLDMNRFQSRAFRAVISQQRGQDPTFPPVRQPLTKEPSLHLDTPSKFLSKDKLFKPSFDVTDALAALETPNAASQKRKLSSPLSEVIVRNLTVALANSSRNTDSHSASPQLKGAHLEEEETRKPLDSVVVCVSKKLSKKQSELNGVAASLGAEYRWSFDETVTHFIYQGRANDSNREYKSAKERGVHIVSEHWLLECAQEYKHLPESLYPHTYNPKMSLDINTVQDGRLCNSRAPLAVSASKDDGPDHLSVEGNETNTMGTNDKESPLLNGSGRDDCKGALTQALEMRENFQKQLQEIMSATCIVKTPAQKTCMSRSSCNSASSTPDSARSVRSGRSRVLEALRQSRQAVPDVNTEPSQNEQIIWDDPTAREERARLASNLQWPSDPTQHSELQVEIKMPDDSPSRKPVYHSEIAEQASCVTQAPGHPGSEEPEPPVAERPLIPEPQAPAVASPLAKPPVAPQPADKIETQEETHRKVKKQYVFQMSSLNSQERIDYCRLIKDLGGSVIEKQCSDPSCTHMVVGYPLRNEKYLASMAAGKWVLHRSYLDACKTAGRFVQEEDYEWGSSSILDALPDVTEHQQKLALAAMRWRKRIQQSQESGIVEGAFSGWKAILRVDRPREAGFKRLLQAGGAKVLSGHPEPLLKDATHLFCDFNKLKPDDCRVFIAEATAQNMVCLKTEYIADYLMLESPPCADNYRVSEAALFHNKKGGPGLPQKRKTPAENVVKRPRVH
Sequence of UniProt O60462 (whole entry, looked up): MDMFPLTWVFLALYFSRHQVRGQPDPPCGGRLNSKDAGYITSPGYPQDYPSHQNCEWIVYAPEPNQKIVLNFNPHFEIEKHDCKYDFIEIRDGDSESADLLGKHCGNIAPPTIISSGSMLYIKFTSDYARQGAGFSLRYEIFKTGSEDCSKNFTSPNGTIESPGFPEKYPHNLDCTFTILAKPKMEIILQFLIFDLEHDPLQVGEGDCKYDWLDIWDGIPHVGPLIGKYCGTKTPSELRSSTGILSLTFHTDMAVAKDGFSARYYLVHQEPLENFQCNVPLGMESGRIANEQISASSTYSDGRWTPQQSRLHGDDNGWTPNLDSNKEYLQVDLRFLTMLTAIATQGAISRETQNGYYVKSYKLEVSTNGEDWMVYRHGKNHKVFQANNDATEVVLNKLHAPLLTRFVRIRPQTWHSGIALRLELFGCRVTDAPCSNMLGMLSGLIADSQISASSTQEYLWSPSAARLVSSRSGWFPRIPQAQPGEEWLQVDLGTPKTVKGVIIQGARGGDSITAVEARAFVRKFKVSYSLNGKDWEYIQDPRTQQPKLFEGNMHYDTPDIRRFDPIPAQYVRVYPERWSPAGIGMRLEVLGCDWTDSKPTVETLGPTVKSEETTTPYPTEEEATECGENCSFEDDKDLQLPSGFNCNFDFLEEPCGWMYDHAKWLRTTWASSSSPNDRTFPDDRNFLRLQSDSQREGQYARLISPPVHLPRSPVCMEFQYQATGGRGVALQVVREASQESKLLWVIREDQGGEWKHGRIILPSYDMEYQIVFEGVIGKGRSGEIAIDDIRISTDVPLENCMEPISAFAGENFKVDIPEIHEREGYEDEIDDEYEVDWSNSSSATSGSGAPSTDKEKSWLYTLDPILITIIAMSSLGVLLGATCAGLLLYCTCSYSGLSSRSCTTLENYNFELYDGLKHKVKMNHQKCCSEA
Sequence of UniProt Q15109 (whole entry, looked up): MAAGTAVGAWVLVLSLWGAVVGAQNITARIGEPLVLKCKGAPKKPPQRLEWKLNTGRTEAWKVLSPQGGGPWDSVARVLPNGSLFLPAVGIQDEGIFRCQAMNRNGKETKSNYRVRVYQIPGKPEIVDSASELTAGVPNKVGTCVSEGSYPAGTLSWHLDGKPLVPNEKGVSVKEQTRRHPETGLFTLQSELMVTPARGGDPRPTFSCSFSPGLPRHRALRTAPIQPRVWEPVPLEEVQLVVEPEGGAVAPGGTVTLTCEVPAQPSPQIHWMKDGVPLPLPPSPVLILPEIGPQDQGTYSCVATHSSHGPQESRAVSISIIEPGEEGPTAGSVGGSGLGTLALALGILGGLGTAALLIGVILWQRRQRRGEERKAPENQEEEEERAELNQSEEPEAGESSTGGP
Sequence of UniProt Q99828 (whole entry, looked up): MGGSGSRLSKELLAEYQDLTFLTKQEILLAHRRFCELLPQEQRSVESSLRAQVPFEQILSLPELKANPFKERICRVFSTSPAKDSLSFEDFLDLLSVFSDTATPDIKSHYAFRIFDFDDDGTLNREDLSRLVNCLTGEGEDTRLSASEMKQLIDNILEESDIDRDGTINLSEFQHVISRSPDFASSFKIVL

MENVKAATATTTWMVPTAQ (L3MBTL3 52-70 K57A (Homo sapiens, UniProt Q96JM7-2); sequence looked up) — Kd (Rbpj; ITC; peptide; pH 6.5, 25 °C, NaCl 150 mM, one site model): 5.3 µM
{FITC}-GLIHQYCQGYWRHVPPSPREAPGAPRSPEPQDQKKPRNRR (SEMA3F 740-779 (Homo sapiens); not fully specified; N-terminal FITC; FITC = O=C1OC2(c3ccc(O)cc3Oc3cc(O)ccc32)c2ccc(NC(=S)*)cc21) — Kd (NRP2 277-592 (Homo sapiens, UniProt O60462); fluorescence polarisation; peptide; 1.8 µM, pH 7.5, 23 °C, NaCl 100 mM, single site model): 4.1 ± 0.5 µM
AR[pT]KQTARKSTG (H3C1 1-12; pT3; pT = C[C@@H](OP(=O)(O)O)[C@H](N)C(=O)O) — Kd (BIRC5; ITC; peptide; pH 6.8, 25 °C): 1.45 ± 0.03 µM
KRRQTSATDFYHSKR-NH2 (CDKN1A 141-155 M147A (Homo sapiens, UniProt P38936); C-terminal amide) — Kd (PCNA (Homo sapiens, UniProt P12004); SPR; peptide): 7.59 µM
MENVAKATATTTWMVPTAQ (L3MBTL3 52-70 K56A (Homo sapiens, UniProt Q96JM7-2); sequence looked up) — Kd (Rbpj; ITC; peptide; pH 6.5, 25 °C, NaCl 150 mM, DMSO 5%): 1.8 µM
KRHRK(Me3)VLRD (histone H4 residues 16-24; K20me3; Me3 = trimethylated (lysine)) — Kd (Tp53bp1 1463-1617 (Mus musculus, UniProt P70399); NMR titration; peptide): 1700 ± 800 µM
YAG[pS][pT]DENTDSE (XRCC1 residues 515-526 (Homo sapiens); pS518/pT519; pS = N[C@@H](COP(=O)(O)O)C(=O)O; pT = C[C@@H](OP(=O)(O)O)[C@H](N)C(=O)O) — Kd (PNKP (Homo sapiens, UniProt Q96T60); ITC; peptide): 1.57 µM
Ac-QTSMTDFYHS-NH2 (p21 peptide 144-153 (Homo sapiens); N-acetyl, C-terminal amide) — Kd (PCNA 1-261 (Homo sapiens, UniProt P12004); ITC; peptide; pH 7.4, 25 °C, NaCl 100 mM): 32.9 µM
melittin — free energy of partitioning (CD titration; POPC 50% POPG 50% vesicles; pH 7.0, 40 °C): -7.82 kcal/mol
FKDLGEE (ALB 11-17 (Homo sapiens)) — Kd (AGER 24-125 (Homo sapiens, UniProt Q15109); fluorescence titration; peptide; 100 nM, pH 6.5, 25 °C, NaCl 100 mM): 673 ± 38 µM
MWPHRVTAAK (peptide; fluorescein) — Kd (MAP1LC3B (Homo sapiens, UniProt Q9GZQ8); fluorescence polarisation; peptide): 1.25 ± 0.453 µM
MPIFLDHILNKFLILHYA (SPAM peptide parental) — Kd (CD274 extracellular domain (Homo sapiens); BLI; peptide): 0.0382 µM
KRRKGLIDYYLHSKR-NH2 (CDKN1A/POLI (Homo sapiens); C-terminal amide) — Kd (PCNA (Homo sapiens, UniProt P12004); SPR; peptide): 0.111 µM
AR[pT][Lys(Me2)]QTARKSTG (histone H3 2-13 (UniProt P68431); pT3, K4me2; pT = C[C@@H](OP(=O)(O)O)[C@H](N)C(=O)O; Lys(Me2) = CN(C)CCCC[C@H](N)C(=O)O; sequence looked up) — Kd (BIRC5; ITC; peptide; pH 7.2): 2.82 ± 0.16 µM
KRRQGRLDDFFHSKR-NH2 (CDKN1A/FEN1 (Homo sapiens); C-terminal amide) — Kd (PCNA (Homo sapiens, UniProt P12004); SPR; peptide): 0.166 µM
{TAMRA}-ADISTFASAINNAGRLRY-NH2 (flp-34 FLP-34-1 (Caenorhabditis elegans); N-terminal TAMRA; C-terminal amide; TAMRA = 5(6)-carboxytetramethylrhodamine) — Kd (npr-11 (Caenorhabditis elegans, UniProt Q18179); NanoBRET saturation binding; peptide, HEK293, membranes; pH 7.4, room temperature): 0.388 µM
RLIEDICLPRWGCLWEDDK-NH2 (cyclic albumin-binding peptide; disulfide 7-13; Cys7-Cys13 disulfide, C-terminal amide) — Kd (Alb (Mus musculus, UniProt P07724); SPR; peptide): 0.065 µM
RRRRRRRRKKPGLRRRQ[pT] (CDKN1B 189-198 (Homo sapiens); phosphothreonine 198; pT = C[C@@H](OP(=O)(O)O)[C@H](N)C(=O)O) — Kd (PIM1 (Homo sapiens, UniProt P11309); SPR; peptide): 0.968 µM
PATPTASSSSSTTPT (TP53BP1 1636-1650 (Homo sapiens, UniProt Q12888); sequence looked up) — Kd (SPOP MATH domain 28-164 (Homo sapiens, UniProt O43791); ITC; peptide; 10 °C, NaCl 100 mM, one-site model): 60.7 ± 8.1 µM
KPTFDMFSSWKYALKPPTYDAVQKWYNKVPSMGNK (REV3 595-629 (Saccharomyces cerevisiae, UniProt P14284)) — Kd (REV7 1-245 (Saccharomyces cerevisiae, UniProt P38927); ITC; peptide; pH 8.4, 25 °C, NaCl 100 mM): 0.0196 ± 0.006 µM
MENVKKATAATTWMVPTAQ (L3MBTL3 52-70 T61A (Homo sapiens, UniProt Q96JM7-2); sequence looked up) — Kd (Rbpj; ITC; peptide; pH 6.5, 25 °C, NaCl 150 mM, one site model): 1.7 µM
{FITC}-GFID[pS]D[pT]DVEEE-NH2 (peptide; N-terminal FITC, pS5, pT7, C-terminal amide; FITC = O=C1OC2(c3ccc(O)cc3Oc3cc(O)ccc32)c2ccc(NC(=S)*)cc21; pS = N[C@@H](COP(=O)(O)O)C(=O)O; pT = C[C@@H](OP(=O)(O)O)[C@H](N)C(=O)O) — Kd (Topbp1 553-749 (Mus musculus, UniProt Q6ZQF0); fluorescence polarisation; peptide; pH 7.5, NaCl 150 mM): 170 ± 20 µM
B1 (PDCD1 residues 25-157 C83S) — Kd (CD274 ectodomain (Homo sapiens); SPR; pH 7.5, 25 °C, NaCl 150 mM): 3.2 ± 0.3 µM
HIF1A plus GSC N826D, Alexa Fluor 488 on C-terminal Cys (sequence not shown) — Kd (Crebbp fragment (Mus musculus); fluorescence polarisation; pH 6.8, 25 °C, NaCl 50 mM): 1.9 µM
KRRQVSITGFFHSKR-NH2 (CDKN1A/POLD3 (Homo sapiens); C-terminal amide) — Kd (PCNA (Homo sapiens, UniProt P12004); SPR; peptide): 0.124 µM
MYSSTDHILNKFLILHYALNPT (peptide) — Kd (CD274 extracellular domain (Homo sapiens); BLI; peptide): 0.000249 µM
EDGGSFWAGAMKALYG (designed peptide) — Kd (CIB1 (Homo sapiens, UniProt Q99828); ITC; peptide; 25 °C, with: CaCl2 0.1 mM): 0.104 µM
MENVKKATATTTWMVPTRQ (L3MBTL3 52-70 A69R (Homo sapiens, UniProt Q96JM7-2); sequence looked up) — Kd (Rbpj; ITC; peptide; pH 6.5, 25 °C, NaCl 150 mM, one site model): 1.63 µM
{FITC′}-SNPDLPNKSNLKFNKPKGPLRKRRT (TWF1 308-332 (Saccharomyces cerevisiae); N-terminal FITC; FITC′ = fluorescein isothiocyanate) — Kd (CAP1/CAP2 (Saccharomyces cerevisiae); fluorescence polarisation; peptide): 0.271 µM
MENVKKATATTWMVPTAQ (L3MBTL3 52-70 del62 (Homo sapiens, UniProt Q96JM7-2); sequence looked up) — Kd (Rbpj; ITC; peptide; pH 6.5, 25 °C, NaCl 150 mM, one site model): 0.99 µM
KRRQTSWTDFYHSKR-NH2 (CDKN1A 141-155 M147W (Homo sapiens, UniProt P38936); C-terminal amide) — Kd (PCNA (Homo sapiens, UniProt P12004); SPR; peptide): 3.57 µM
MENVKKATATTTWMVPTAQ (L3MBTL3 52-70 (Homo sapiens, UniProt Q96JM7-2); sequence looked up) — Kd (Rbpj; ITC; peptide; pH 6.5, 25 °C, NaCl 150 mM, DMSO 5%): 0.9 µM
ARTK(Me3)QTARKSTG (histone H3 2-13 (UniProt P68431); K4me3; Me3 = trimethyl-lysine; sequence looked up) — Kd (DIDO1 266-325 (Homo sapiens, UniProt Q9BTC0); intrinsic tryptophan fluorescence titration; peptide; pH 7.5, 25 °C): 1.3 µM

Excerpt of the above:
AR[pT][Lys(Me2)]QTARKSTG (histone H3 2-13 (UniProt P68431); pT3, K4me2; pT = C[C@@H](OP(=O)(O)O)[C@H](N)C(=O)O; Lys(Me2) = CN(C)CCCC[C@H](N)C(=O)O; sequence looked up) — Kd (BIRC5; ITC; peptide; pH 7.2): 2.82 ± 0.16 µM
{FITC}-GFID[pS]D[pT]DVEEE-NH2 (peptide; N-terminal FITC, pS5, pT7, C-terminal amide; FITC = O=C1OC2(c3ccc(O)cc3Oc3cc(O)ccc32)c2ccc(NC(=S)*)cc21; pS = N[C@@H](COP(=O)(O)O)C(=O)O; pT = C[C@@H](OP(=O)(O)O)[C@H](N)C(=O)O) — Kd (Topbp1 553-749 (Mus musculus, UniProt Q6ZQF0); fluorescence polarisation; peptide; pH 7.5, NaCl 150 mM): 170 ± 20 µM
